Results gathered from unrelated publications.
Numbered parts are unrelated; each lists some results of a single study. Substitutions count along the parent as printed.

Study 1 — method: DHFR PCA, deep sequencing; medium: yeast; added: (+)-ABA 0.39 µM; relative to: wild-type fitted maximum; reading: higher = stronger binding; quantity: relative binding score
Target: ABI1, truncated, D143A, DHFR fusion (Arabidopsis thaliana)
Setting: methotrexate growth selection, single substitutions
Parent: PYL1, truncated, DHFR fusion (Arabidopsis thaliana); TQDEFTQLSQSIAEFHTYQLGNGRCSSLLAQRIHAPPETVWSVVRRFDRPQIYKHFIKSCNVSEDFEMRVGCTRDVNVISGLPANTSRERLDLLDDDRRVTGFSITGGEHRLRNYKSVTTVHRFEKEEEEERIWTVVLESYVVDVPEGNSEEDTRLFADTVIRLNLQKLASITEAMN; partner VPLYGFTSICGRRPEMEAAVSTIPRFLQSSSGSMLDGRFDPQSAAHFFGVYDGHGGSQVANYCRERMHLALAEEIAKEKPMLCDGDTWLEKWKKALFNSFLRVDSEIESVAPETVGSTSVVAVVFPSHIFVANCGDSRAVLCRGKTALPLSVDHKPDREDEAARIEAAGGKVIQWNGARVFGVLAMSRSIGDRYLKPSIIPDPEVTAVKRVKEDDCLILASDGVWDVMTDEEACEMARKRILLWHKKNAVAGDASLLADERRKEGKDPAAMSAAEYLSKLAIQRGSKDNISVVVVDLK
Variant = L156F; value = -1.14%
Variant = K168Y; value = 13.8%
Variant = T173Y; value = -26.4%
Variant = S104Q; value = -17.7%
Variant = G71R; value = -3.02%
Variant = L138M; value = 10.6%

Study 2 — method: aptamer microarray, sandwich; molecule type: DNA with 2'F-ANA; medium: in vitro; tested at: 200 nM; added: Cy3 exosite-II aptamer, 400 nM; reading: higher = stronger binding; quantity: mean fluorescence intensity; oligonucleotide: GGTTGGTGTGGTTGG
Target: Prothrombin, mature alpha-thrombin (F2, Homo sapiens, UniProt P00734)
Setting: whole 15-mer aptamer, many near background
Modification = 2'F-ANA at 1 2 4 6 11 12 14; value = 56 a.u.
Modification = 2'F-ANA at 6 7 8 9 11 12 13 14; value = 191 a.u.
Modification = 2'F-ANA at 6 7 12 13 14; value = 207 a.u.
Modification = 2'F-ANA at 1 2 4 7 8 9 10 11 12 13 14 15; value = 50 a.u.
Modification = 2'F-ANA at 1 3 4 6 7 8 9 11 13 15; value = 141 a.u.
Modification = 2'F-ANA at 1 3 5 6 9 10 11 12 14 15; value = 58.1 a.u.
Modification = 2'F-ANA at 2 4 6 8 9 10 11 14 15; value = 57.1 a.u.

Study 3 — method: RNA Bind-n-Seq; molecule type: RNA; medium: in vitro; tested at: 200 nM; setting: whole 134-nt RNA, ends assumed; added: 150 mM LiCl; relative to: input library; reading: higher = stronger binding; quantity: log2 enrichment; library: 7-deaza-guanosine replaces G
Target: Fragile X messenger ribonucleoprotein 1, C-terminal low-complexity region (Fmr1, Mus musculus, UniProt P35922)
Oligonucleotide = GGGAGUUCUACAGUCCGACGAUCCACAGACAACACGCACAAACACAGACACAGAGGGAAGGGGUUGGGAUGGGGACAGGGUGCACAGCAGGGCGGGGUAGGACCCCAGCCCCUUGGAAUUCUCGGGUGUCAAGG; value = 0.947
Oligonucleotide = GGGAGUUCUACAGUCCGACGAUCACCAUGCAGGUGGGCAUCUUUGGGAAGUGGGGCAAGGGGGGGAUAGGGAGGGGGGUAACACUUUGGGACCAGGUGGUCCCAGGUCGUUUCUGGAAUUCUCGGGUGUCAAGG; value = 1.41
Oligonucleotide = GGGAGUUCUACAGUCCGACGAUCCCUGUGCUACACAUCGUAUGUACCGAAUCAAACCCCCCCAAACCCCCCCAAACCCCCAAAAAAGUAUUAUGUUACGCCGUUCGGAUCUGCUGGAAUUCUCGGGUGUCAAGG; value = 1.03
Oligonucleotide = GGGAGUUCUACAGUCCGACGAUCUGGGAGGUGGAUUUUGUUUAUUUUUUUAGCUCAUUUCCAGGGGUGGGAAUUUUUUUUUAAUAUGUGUCAUGAAUAAAGUUGUUUUUGAGAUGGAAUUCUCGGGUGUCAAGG; value = 0.764
Oligonucleotide = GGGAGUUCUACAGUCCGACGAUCAGUCCUGUGCUACACAUCGUAUGUACCGAAUCGGGUUUUUGGGAAAGGGAAAAAGGGAAAGUAUUAUGUUACGCCGUUCGGAUCUGCACUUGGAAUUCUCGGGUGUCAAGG; value = -1.52
Oligonucleotide = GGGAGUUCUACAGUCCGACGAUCAAGUCCUGUGCUACACAUCGUAUGUACCGAAUCGGGGAAAGGGGAAAGGGAAAGGGAAAGUAUUAUGUUACGCCGUUCGGAUCUGCACUUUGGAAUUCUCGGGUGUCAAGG; value = 0.183

Mixed results
Molecule = PhoQ, residues 284 288 289 292 302 303 SLKLQV; target = PhoP, residues 12 14 15 18 19 NNFVT (Escherichia coli, UniProt P23836); test = Sort-seq, refers to: YFP reporter; test system = E. coli; setting = PhoQ-PhoP variant library, added: 10 µM Mg2+; scale = relative to: high Mg2+ state, higher = stronger signaling; quantity = fold induction; value = 7.87

A few entries again (study 2):
Modification = 2'F-ANA at 1 2 4 6 11 12 14; value = 56 a.u.
Modification = 2'F-ANA at 6 7 8 9 11 12 13 14; value = 191 a.u.
Modification = 2'F-ANA at 6 7 12 13 14; value = 207 a.u.
